# Assay results pooled from the literature.
# Lines come from different studies, so protocols differ.
# Organism: Escherichia coli
Structure (SMILES),assay,test system,conditions,MIC
CC[C@H](C)[C@H](NC(=O)[C@@H](CCCNC(=N)N)NC(=O)[C@H](CCCNC(=N)N)NC(=O)[C@@H]1CCCN1C(=O)[C@@H]1CCCN1C(=O)[C@H](CCCNC(=N)N)NC(=O)[C@@H]1CCCN1C(=O)[C@H](CCCNC(=N)N)NC(=O)[C@@H]1CCCN1C(=O)[C@H](CC(C)C)NC(=O)[C@H](Cc1ccc(O)cc1)NC(=O)[C@@H]1CCCN1C(=O)[C@@H]1CCCN1C(=O)[C@H](CCCCN)NC(=O)[C@H](CC(=O)O)NC(=O)[C@@H](N)C(C)C)C(=O)N[C@@H](Cc1ccc(O)cc1)C(=O)N[C@@H](CC(N)=O)C(=O)N[C@H](CCCNC(=N)N)C(N)=O,broth microdilution,MC4100,"18 h, 37 °C, 25% MHB2",8 µg/mL
COC(=O)CC(C)c1n[nH]c2nc(N)[nH]c(=O)c2c1=O (stereo not shown),"microbial growth, broth dilution",BW25113,18 h,> 100 µg/mL
CCCCCCCCCCCC(=O)Oc1c(C)c(OC)c2c(c1C)OC(=O)[C@@H](CCCCCCCCCC)[C@]2(O)/C=C/c1ccccc1 (relative stereo),"microbial growth, broth dilution",ATCC25922,,5000 µg/mL
COc1c(NC(=O)c2ccc(NC(=O)[C@H](Cc3c[nH]nn3)NC(=O)c3ccc(NC(=O)/C(C)=C/c4ccc(O)cc4)cc3)cc2)ccc(C(=O)Nc2ccc(C(=O)O)c(O)c2)c1O,broth microdilution,BW25113,,0.031 µg/mL
COc1cc2c(cc1OC)-c1cc3ccc(OC)c(OC)c3c[n+]1CC2.[Cl][Fe-]([Cl])([Cl])[Cl],,,"24 h, 37 °C",> 800 µM
COc1c(NC(=O)c2ccc(NC(=O)c3ccc(NC(=O)[C@H](CC#N)NC(=O)c4ccc(NC(=O)/C(C)=C/c5ccc(O)cc5)cc4)cc3)c(OC)c2O)ccc(C(=O)O)c1O,microbial growth,DSM1116,,0.1 µg/mL
CC[C@H]1OC(=O)[C@H](C)[C@@H](OC(=O)Cc2ccccc2[N+](=O)[O-])[C@H](C)[C@@H](O[C@@H]2O[C@H](C)C[C@H](N(C)C)[C@H]2O)[C@](C)(OC)C[C@@H](C)C(=O)[C@H](C)[C@@H](O)[C@]1(C)O,,tolC,,2 µg/mL
CN[C@H](CC(C)C)C(=O)N[C@H]1C(=O)N[C@@H](CC(N)=O)C(=O)N[C@H]2C(=O)N[C@H]3C(=O)N[C@H](C(=O)N[C@H](C(=O)O)c4cc(O)cc(O)c4-c4cc3ccc4O)[C@H](O)c3ccc(c(Cl)c3)Oc3cc2cc(c3O[C@@H]2O[C@H](CO)[C@@H](O)[C@H](O)[C@H]2O[C@H]2C[C@](C)(NCc3ccc(OCc4cn(CC(=O)N[C@H](C(=O)N[C@@H](CCN)C(=O)N[C@H]5CCNC(=O)[C@H]([C@@H](C)O)NC(=O)[C@H](CCN)NC(=O)[C@H](CCN)NC(=O)[C@H](CC(C)C)NC(=O)[C@@H](CC(C)C)NC(=O)[C@H](CCN)NC5=O)[C@@H](C)O)nn4)c(OC)c3)[C@H](O)[C@H](C)O2)Oc2ccc(cc2Cl)[C@H]1O,broth microdilution,"ATCC 35218, cation-adjusted Mueller-Hinton broth","18 to 20 h, 37 °C, 0.002% polysorbate 80",16 µg/mL
CCCCCCCC(=O)N[C@@H](CCN)C(=O)N[C@H](C(=O)N[C@@H](CCN)C(=O)N[C@H]1CCNC(=O)[C@H]([C@@H](C)O)NC(=O)[C@H](CCN)NC(=O)[C@H](CCN)NC(=O)[C@H](CC(C)C)NC(=O)[C@@H](Cc2ccccc2)NC(=O)[C@H](CCN)NC1=O)[C@@H](C)O,broth microdilution,"ATCC 25922, colistin-susceptible",,0.25 µg/mL
COc1ccc2ccc(O)c(/C=N/[C@H]3CCCC[C@H]3/N=C/c3cccc(C)c3O)c2c1,"microbial growth, broth dilution",,clinical isolate,> 40 µM
CCC(CC)c1cc(CCN2CCCN(S(=O)(=O)c3ccc(C)cc3)CC2)nc(-c2ccccn2)n1,"microbial growth, broth dilution",ATCC25922,,> 64 µg/mL
CC1(C)[C@H](NC(=O)/C(=N\OCC(=O)N2CCC(C(=O)O)C2)c2nsc(N)n2)C(=O)N1OS(=O)(=O)O (stereo partly shown),agar dilution,"16-1, ESBL-producing",,4 µg/mL
C/C(=C\c1ccc(O)cc1)C(=O)Nc1ccc(C(=O)N[C@@H](Cc2c[nH]nn2)C(=O)Nc2ccc(C(=O)Nc3ccc(C(=O)Nc4ccc(C(=O)O)cc4)cc3)cc2)cc1,broth microdilution,ciprofloxacin-sensitive,,0.063 µg/mL
CCCCCCn1cc[n+](CCCCCCCCCCOc2cc(OCCCCCCCCCC[n+]3ccn(CCCCCC)c3)cc(OCCCCCCCCCC[n+]3ccn(CCCCCC)c3)c2)c1.[Br-].[Br-].[Br-],,MC4100,,8 µM
CC1(C)[C@H](NC(=O)/C(=N\OCCN)c2csc(N)n2)C(=O)N1OS(=O)(=O)O,agar dilution,"16-1, ESBL-producing",,4 µg/mL
COc1ccc(/N=N/C(=S)N2CCN(C)CC2)cc1,"microbial growth, broth dilution","ATCC 8739, ATCC8739",24 h,> 50 µM
COc1c(NC(=O)c2ccc(NC(=O)c3ccc(NC(=O)[C@H](Cc4c[nH]nn4)NC(=O)c4ccc(NC(=O)/C(C)=C/c5ccc(O)cc5)cc4)cc3)cc2O)ccc(C(=O)O)c1O,broth microdilution,ciprofloxacin-resistant,,0.5 µg/mL
CCCCCCCCCCCC[N+](C)(C)CCCCCCCCCCOc1cc(OCCCCCCCCCC[N+](C)(C)CCCCCCCCCCCC)cc(OCCCCCCCCCC[N+](C)(C)CCCCCCCCCCCC)c1.[Br-].[Br-].[Br-],,MC4100,,63 µM
COc1c(NC(=O)c2ccc(NC(=O)c3ccc(NC(=O)[C@H](Cc4c[nH]nn4)NC(=O)c4ccc(NC(=O)/C(C)=C/c5ccc(O)cc5)cc4)cc3)c(OC)c2O)ccc(C(=O)O)c1O,"microbial growth, broth dilution",DSM1116,,0.016 µg/mL
N=C(N)NCCC[C@@H]1NC(=O)[C@H](CCCNC(=N)N)NC(=O)[C@@H](CCCNC(=N)N)NC(=O)[C@@H](CCCNC(=N)N)NC(=O)[C@@H](C(c2ccccc2)c2ccccc2)NC(=O)[C@H](Cc2c[nH]c3ccccc23)NC(=O)[C@@H](C(c2ccccc2)c2ccccc2)NC1=O,,ATCC 25922,,16 µg/mL
CC[C@H](C)[C@H](NC(=O)[C@@H](CCCNC(=N)N)NC(=O)[C@H](CCCNC(=N)N)NC(=O)[C@@H]1CCCN1C(=O)[C@@H]1CCCN1C(=O)[C@H](CCCNC(=N)N)NC(=O)[C@@H]1CCCN1C(=O)[C@H](CCCNC(=N)N)NC(=O)[C@@H]1CCCN1C(=O)[C@H](CC(C)C)NC(=O)[C@H](Cc1ccc(O)cc1)NC(=O)[C@@H]1CCCN1C(=O)[C@H](CCCCN)NC(=O)[C@H](CCCCN)NC(=O)[C@H](CC(=O)O)NC(=O)[C@@H](N)C(C)C)C(=O)N[C@@H](Cc1ccc(O)cc1)C(=O)N[C@@H](CC(N)=O)C(=O)N[C@H](CCCNC(=N)N)C(N)=O,broth microdilution,ATCC 25922,"18 h, 37 °C, 25% MHB2",16 µg/mL
C[C@H](CS)C(=O)Nc1cccc(-c2nn[nH]n2)c1,broth microdilution,DH5α pET28-lacUV5 control,25 µM,> 64 µg/mL
COC(C(N)=O)C(NC(=O)c1ccc(NC(=O)c2ccc(C#N)cc2)cc1)C(=O)Nc1ccc(C(=O)Nc2ccc(C(=O)Nc3ccc(C(=O)O)cc3)c(O)c2OC(C)C)cc1 (stereo not shown),,BW25113 ΔtolC,,0.08 µg/mL
CC(C)C[C@@H]1NC(=O)[C@@H](CC(C)C)NC(=O)[C@H](CCN)NC(=O)[C@@H](NC(=O)[C@H](CCN)NC(=O)[C@@H](N)[C@@H](C)O)CCNC(=O)[C@H]([C@@H](C)O)NC(=O)[C@H](CCN)NC(=O)[C@H](CCN)NC1=O,broth microdilution,"ATCC 35218, cation-adjusted Mueller-Hinton broth","18 to 20 h, 37 °C, 0.002% polysorbate 80",> 128 µg/mL
COC(=O)CNC(=O)c1ccc(NC(=O)c2[nH]c(C)c(Cl)c2Cl)c(N2CCN(C(=O)OC(C)(C)C)CC2)c1,"microbial growth, broth dilution",ATCC25922,,> 32 µg/mL
CC[C@H]1OC(=O)[C@H](C)[C@@H](OC(=O)c2ccc(N)cc2)[C@H](C)[C@@H](O[C@@H]2O[C@H](C)C[C@H](N(C)C)[C@H]2O)[C@](C)(OC)C[C@@H](C)C(=O)[C@H](C)[C@@H](O)[C@]1(C)O,,tolC,,32 µg/mL
COc1cccc(OC)c1C(=O)N[C@@H]1C(=O)N2[C@@H]1SC(C)(C)[C@@H]2C(=O)O,"microbial growth, broth dilution",25922,,> 128 µM
Cn1nnnc1NCc1nn(C)c2nc(N)[nH]c(=O)c2c1=O,"microbial growth, broth dilution",BW25113,18 h,> 100 µg/mL
CCOc1c(NC(=O)c2ccc(NC(=O)[C@H](Cc3c[nH]nn3)NC(=O)c3ccc(NC(=O)/C(C)=C/c4ccc(O)cc4)cc3)cc2)ccc(C(=O)Nc2ccc(C(=O)O)c(O)c2OC)c1O,broth microdilution,ciprofloxacin-sensitive,,0.031 µg/mL
COc1ccc2ccc(O)c(/C=N/[C@H]3CCCC[C@H]3/N=C/c3cc(C(C)(C)C)cc(C(C)(C)C)c3O)c2c1,"microbial growth, broth dilution",,clinical isolate,> 40 µM
CC[C@H]1OC(=O)[C@H](C)[C@@H](OC(=O)Cc2ccc(Cl)cc2)[C@H](C)[C@@H](O[C@@H]2O[C@H](C)C[C@H](N(C)C)[C@H]2O)[C@](C)(OC)C[C@@H](C)C(=O)[C@H](C)[C@@H](O)[C@]1(C)O,,lpxC,,> 32 µg/mL
COc1nc(C(=O)O)ccc1NC(=O)c1ccc(NC(=O)c2ccc(NC(=O)[C@H](Cc3c[nH]nn3)NC(=O)c3ccc(NC(=O)/C(C)=C/c4ccc(O)cc4)cc3)cc2)c(OC)c1O,broth microdilution,DSM 1116,,0.5 µg/mL
CC[C@H]1OC(=O)[C@H](C)C(=O)[C@H](C)[C@@H](O[C@@H]2O[C@H](C)C[C@H](N(C)C)[C@H]2O)[C@](C)(OC)C[C@@H](C)C(=O)[C@H](C)[C@H]2N(CCCCn3cnc(-c4cccnc4)c3)C(=O)O[C@]12C,,tolC,,8 µg/mL
COc1c(NC(=O)c2ccc(NC(=O)[C@H](Cc3c[nH]nn3)NC(=O)c3ccc(NC(=O)/C(C)=C/c4ccc(O)cc4)cc3)cc2)ccc(C(=O)Nc2ccc(C(=O)O)cc2)c1O,broth microdilution,BW25113,,0.125 µg/mL

# Repeated from above:
Structure (SMILES),assay,test system,conditions,MIC
CC(C)C[C@@H]1NC(=O)[C@@H](CC(C)C)NC(=O)[C@H](CCN)NC(=O)[C@@H](NC(=O)[C@H](CCN)NC(=O)[C@@H](N)[C@@H](C)O)CCNC(=O)[C@H]([C@@H](C)O)NC(=O)[C@H](CCN)NC(=O)[C@H](CCN)NC1=O,broth microdilution,"ATCC 35218, cation-adjusted Mueller-Hinton broth","18 to 20 h, 37 °C, 0.002% polysorbate 80",> 128 µg/mL
CC[C@H]1OC(=O)[C@H](C)C(=O)[C@H](C)[C@@H](O[C@@H]2O[C@H](C)C[C@H](N(C)C)[C@H]2O)[C@](C)(OC)C[C@@H](C)C(=O)[C@H](C)[C@H]2N(CCCCn3cnc(-c4cccnc4)c3)C(=O)O[C@]12C,,tolC,,8 µg/mL
CC1(C)[C@H](NC(=O)/C(=N\OCCN)c2csc(N)n2)C(=O)N1OS(=O)(=O)O,agar dilution,"16-1, ESBL-producing",,4 µg/mL
